Experimental data of several laboratories.
Every numbered part comes from another study and shows a few of its results, in no order. Positions count from the first letter of the parent shown.
Chain of UniProt Q8RYC8 (whole entry, looked up): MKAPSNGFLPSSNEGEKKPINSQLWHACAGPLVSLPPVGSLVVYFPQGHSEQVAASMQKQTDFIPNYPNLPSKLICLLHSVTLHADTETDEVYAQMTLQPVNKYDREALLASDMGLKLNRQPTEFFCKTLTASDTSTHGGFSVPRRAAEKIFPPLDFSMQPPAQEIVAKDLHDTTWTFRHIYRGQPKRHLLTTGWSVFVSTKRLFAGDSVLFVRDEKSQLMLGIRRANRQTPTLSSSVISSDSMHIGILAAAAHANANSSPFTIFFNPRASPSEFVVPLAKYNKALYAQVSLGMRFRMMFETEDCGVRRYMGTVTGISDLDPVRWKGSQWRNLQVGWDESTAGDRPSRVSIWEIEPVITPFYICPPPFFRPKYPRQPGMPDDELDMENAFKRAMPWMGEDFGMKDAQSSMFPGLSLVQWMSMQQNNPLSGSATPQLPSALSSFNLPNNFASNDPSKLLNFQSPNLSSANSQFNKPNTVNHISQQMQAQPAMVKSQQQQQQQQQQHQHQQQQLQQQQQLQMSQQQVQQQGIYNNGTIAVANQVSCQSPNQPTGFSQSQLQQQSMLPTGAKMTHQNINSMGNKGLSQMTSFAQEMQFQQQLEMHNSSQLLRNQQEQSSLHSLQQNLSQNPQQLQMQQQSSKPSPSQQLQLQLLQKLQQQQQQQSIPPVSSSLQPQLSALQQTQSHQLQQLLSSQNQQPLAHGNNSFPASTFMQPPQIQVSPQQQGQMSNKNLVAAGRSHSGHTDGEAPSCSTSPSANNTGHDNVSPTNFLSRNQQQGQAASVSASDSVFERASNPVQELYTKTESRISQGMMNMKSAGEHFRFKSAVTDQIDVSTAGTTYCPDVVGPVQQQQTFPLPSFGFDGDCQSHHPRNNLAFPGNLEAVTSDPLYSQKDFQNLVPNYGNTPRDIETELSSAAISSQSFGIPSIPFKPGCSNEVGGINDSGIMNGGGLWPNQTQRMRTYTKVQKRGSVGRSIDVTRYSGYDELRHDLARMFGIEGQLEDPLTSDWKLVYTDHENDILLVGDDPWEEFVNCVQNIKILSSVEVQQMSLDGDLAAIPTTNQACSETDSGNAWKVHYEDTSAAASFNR
Chain of UniProt Q93WC4 (whole entry, looked up): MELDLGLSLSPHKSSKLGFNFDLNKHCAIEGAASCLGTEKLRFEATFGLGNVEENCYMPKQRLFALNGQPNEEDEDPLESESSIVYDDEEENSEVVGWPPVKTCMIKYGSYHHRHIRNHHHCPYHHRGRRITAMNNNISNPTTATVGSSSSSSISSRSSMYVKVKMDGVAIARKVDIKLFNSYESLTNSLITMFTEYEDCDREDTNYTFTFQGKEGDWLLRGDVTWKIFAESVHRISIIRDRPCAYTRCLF
Chain of UniProt Q9C966 (whole entry, looked up): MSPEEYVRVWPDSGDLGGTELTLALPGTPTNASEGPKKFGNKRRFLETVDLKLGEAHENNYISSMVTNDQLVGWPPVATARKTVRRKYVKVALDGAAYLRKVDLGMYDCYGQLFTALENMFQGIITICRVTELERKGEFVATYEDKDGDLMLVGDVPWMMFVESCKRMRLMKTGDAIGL
Chain of UniProt O24410 (whole entry, looked up): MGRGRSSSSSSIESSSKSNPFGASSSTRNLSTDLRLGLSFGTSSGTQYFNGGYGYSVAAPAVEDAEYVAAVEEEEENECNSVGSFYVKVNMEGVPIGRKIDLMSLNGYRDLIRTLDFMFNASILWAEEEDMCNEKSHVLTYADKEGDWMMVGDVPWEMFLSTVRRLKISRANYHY
Chain of UniProt P93022 (whole entry, looked up): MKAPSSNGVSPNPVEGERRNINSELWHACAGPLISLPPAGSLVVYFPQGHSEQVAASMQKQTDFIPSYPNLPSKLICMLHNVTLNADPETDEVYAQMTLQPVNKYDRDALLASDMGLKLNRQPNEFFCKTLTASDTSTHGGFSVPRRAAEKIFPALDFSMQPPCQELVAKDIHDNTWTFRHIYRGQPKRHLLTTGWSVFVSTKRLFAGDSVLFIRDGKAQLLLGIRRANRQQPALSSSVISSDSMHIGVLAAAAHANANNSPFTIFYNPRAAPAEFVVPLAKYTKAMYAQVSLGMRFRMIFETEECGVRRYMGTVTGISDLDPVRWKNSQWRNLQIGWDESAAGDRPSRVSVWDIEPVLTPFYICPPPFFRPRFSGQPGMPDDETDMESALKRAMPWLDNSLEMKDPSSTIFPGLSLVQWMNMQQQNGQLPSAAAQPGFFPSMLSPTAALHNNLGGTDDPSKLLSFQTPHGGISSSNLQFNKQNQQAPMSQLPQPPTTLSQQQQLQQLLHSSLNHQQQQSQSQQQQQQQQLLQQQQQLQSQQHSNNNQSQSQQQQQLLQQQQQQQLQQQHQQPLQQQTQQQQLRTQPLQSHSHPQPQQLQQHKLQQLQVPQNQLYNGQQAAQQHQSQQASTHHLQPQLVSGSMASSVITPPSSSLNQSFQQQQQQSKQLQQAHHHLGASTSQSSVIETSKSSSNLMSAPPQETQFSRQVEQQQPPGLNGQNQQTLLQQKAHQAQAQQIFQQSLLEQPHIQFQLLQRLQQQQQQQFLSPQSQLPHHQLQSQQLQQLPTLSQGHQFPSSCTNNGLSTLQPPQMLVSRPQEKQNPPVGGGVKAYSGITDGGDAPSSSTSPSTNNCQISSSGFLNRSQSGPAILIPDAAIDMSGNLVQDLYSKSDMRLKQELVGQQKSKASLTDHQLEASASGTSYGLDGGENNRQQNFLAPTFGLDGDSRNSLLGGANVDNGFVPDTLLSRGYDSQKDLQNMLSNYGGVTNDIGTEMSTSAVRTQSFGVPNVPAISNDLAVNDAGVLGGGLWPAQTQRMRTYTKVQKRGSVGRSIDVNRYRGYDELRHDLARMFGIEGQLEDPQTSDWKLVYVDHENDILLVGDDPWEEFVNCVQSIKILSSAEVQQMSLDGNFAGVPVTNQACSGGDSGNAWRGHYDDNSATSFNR
Chain of UniProt Q94JM3 (whole entry, looked up): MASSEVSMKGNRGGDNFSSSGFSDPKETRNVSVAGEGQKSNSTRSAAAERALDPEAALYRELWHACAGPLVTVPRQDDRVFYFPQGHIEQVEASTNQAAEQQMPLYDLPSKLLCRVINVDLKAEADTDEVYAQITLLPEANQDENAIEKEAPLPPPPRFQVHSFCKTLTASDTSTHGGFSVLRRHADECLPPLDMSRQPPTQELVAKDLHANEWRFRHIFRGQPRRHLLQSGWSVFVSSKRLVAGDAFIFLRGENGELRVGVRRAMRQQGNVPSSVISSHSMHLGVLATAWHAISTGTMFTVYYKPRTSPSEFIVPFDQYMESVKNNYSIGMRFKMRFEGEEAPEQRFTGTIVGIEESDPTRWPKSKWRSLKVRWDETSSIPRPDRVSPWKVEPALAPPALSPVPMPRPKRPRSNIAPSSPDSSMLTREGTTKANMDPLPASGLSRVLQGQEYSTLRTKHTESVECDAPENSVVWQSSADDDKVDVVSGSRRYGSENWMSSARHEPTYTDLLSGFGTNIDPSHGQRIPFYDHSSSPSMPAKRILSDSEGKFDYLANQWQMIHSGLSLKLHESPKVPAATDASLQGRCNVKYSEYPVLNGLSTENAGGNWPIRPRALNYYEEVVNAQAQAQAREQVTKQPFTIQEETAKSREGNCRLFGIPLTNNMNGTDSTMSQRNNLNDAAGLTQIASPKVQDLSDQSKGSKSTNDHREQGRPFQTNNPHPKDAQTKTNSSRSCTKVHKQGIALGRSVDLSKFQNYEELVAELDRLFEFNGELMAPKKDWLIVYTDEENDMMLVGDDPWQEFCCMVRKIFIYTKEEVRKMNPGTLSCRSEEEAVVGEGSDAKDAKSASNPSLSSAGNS

Series 1
Molecule: B1 (IAA10)
Method: two-hybrid
Reading: higher = firmer interaction
B1: IAA10 (Arabidopsis thaliana, UniProt Q38828); chain MNGLQEVCSSSGSVMIGLPAEEDENAAHSSEDSSCPDESVSETELDLALGLSIGRRKVRSSLSSSSSSLTRESGTKRSADSSPAAASNATRQVAVGWPPLRTYRINSLVNQAKSLATEGGLSSGIQKETTKSVVVAAKNDDACFIKSSRTSMLVKVTMDGVIIGRKVDLNALDSYAALEKTLDLMFFQIPSPVTRSNTQGYKTIKETCTSKLLDGSSEYIITYQDKDGDWMLVGDVPWQMFLGSVTRLRIMKTSIGAGVGK
partner	setting	relative to	positive tests
ARF2 727-859 (Arabidopsis thaliana, UniProt Q94JM3)		out of 4 tests	2
IAA15 (Arabidopsis thaliana, UniProt Q9C966)		out of 2 tests	2
IAA29 (Arabidopsis thaliana, UniProt Q93WC4)		out of 4 tests	0
IAA20 (Arabidopsis thaliana, UniProt O24410)	weak activation fusion	out of 2 tests	0
ARF7 1030-1164 (Arabidopsis thaliana, UniProt P93022)		out of 4 tests	2
ARF19 948-1086 (Arabidopsis thaliana, UniProt Q8RYC8)		out of 4 tests	3

Series 2
Target: Fragile X messenger ribonucleoprotein 1, C-terminal low-complexity region (Fmr1, Mus musculus, UniProt P35922)
Method: RNA Bind-n-Seq
Molecule type: RNA
Medium: in vitro
Tested at: 200 nM
Setting: whole 134-nt RNA, ends assumed
Together with: 150 mM LiCl
Relative to: input library
Reading: higher = stronger binding
Each molecule: 7-deaza-guanosine replaces G
Sequence	log2 enrichment
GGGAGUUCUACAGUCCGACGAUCUAAAUUUAGAGGAGGAUCUGAUGGAUAUGGCAGUGGACGUGGAUUUGGGGAUGGCUAUAAUGGGUAUGGAGGAGGACCUGGAGGUGGCAAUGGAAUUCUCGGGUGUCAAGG	0.278
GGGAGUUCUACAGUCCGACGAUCUUCAAGGAAAAACAAGAGGAGCAGGCUCGCCUCCUUGAUGAACUGGCAGGCAAGCUACAAAGCCUAGACCUUUCAGCCGCUGCCGAAAUGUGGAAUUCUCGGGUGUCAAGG	-3.17
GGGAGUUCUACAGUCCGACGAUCAGUCCUGUGCUACACAUCGUAUGUACCGAAUCGGGAAAAGGGGAAAAGGGAAAAGGGAAAGUAUUAUGUUACGCCGUUCGGAUCUGCACUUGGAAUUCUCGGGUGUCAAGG	-0.835
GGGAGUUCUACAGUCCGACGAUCCUGUGCUACACAUCGUAUGUACCGAAUCGGAAAAAAAGGGAAAAAAAGGGGAAAAAAAGGGGAAAGUAUUAUGUUACGCCGUUCGGAUCUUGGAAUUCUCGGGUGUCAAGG	0.215
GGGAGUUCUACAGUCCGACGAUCAGCAUGCAGGUGGGCAUCUUUGGGAAGUGGGGCAAGGGGGGGAUAGGGAGGGGGGUAACACUUUGGGAACAGGUGGUCCCAGGUCGUUUCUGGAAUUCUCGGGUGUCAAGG	1.22
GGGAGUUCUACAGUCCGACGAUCCACAGACAACACGCACCCACACCGACACAGAGGGAAGGGGUUGGGAUGGGGACAGGGUGCACAGCAGGGCGGGGUAGGACCCCAGCCCCUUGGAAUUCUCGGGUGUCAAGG	-0.227
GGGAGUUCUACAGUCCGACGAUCUGGCCGUGGUGGCAUGCGGGGAGGAAGAGGUGGCCUCAUGGAUCGUGGUGGUCCCGGUGGAAUGUUCAGAGGUGGCCGUGGUGGAGACAGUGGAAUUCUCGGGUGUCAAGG	0.0195
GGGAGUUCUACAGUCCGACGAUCGCAGGAAGUAAAAACAAAUGGAAAUGCUUCGGAUAGUGGCAGGGGUGGGGGUUGCUAGGGAAAGGGUGGGAUGGGAGUGGGUAAAGAGUUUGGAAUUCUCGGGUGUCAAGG	0.783
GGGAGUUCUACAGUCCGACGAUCAGUCCUGUGCUACACAUCGUAUGUACCGAAUCGGGGCCCCGGGCCCCGGGCCCCGGGGAAAGUAUUAUGUUACGCCGUUCGGAUCUGCACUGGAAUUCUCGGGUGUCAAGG	-3.06
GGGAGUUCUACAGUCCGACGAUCGUCCUGUGCUACACAUCGUAUGUACCGAAUCGGGAAAAAAAGGGAAAGGGAAAAAGGGAAAGUAUUAUGUUACGCCGUUCGGAUCUGCACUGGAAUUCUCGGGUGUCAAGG	0.279
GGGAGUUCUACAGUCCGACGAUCCCUCAAGUCCUGUGCUACACAUCGUAUGUACCGAAUCGGGGCGGGGCGGCGGGAAAGUAUUAUGUUACGCCGUUCGGAUCUGCACUUCCAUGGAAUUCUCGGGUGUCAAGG	-0.724

Series 3
Target: ABI1, truncated, D143A, DHFR fusion (Arabidopsis thaliana)
Method: DHFR PCA, deep sequencing
Medium: yeast
Setting: methotrexate growth selection, single substitutions
Together with: (+)-ABA 2500 µM
Relative to: wild-type fitted maximum
Reading: higher = stronger binding
Starting sequence: PYL1, truncated, DHFR fusion (Arabidopsis thaliana); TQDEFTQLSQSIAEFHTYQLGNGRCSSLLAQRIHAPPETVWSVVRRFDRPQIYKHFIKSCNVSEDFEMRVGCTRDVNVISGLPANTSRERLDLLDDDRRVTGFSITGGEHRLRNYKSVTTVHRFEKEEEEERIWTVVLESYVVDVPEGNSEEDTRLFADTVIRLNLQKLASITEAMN; partner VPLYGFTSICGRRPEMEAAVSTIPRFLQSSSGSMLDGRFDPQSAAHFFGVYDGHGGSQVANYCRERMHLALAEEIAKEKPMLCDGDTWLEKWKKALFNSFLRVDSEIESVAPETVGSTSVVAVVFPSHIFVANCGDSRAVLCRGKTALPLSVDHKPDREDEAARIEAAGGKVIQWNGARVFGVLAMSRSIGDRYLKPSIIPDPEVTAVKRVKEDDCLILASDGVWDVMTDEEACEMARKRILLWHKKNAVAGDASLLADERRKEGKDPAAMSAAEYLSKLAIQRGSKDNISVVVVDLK
Variant	relative binding score
M68D	91.2%
R24M	92.4%
E14Q	88.9%
L91G	-1.36%
C72H	95.2%
D159I	23.8%
R111I	65.8%
H55G	94.5%
E130M	104%
D65N	97.7%
I172A	88.5%
Q51S	87.8%
S150T	94.9%
R88M	93.2%
G23M	97.5%
E174Q	90.7%
L94G	24.9%
T106K	99%
P36Q	94.7%
K116F	70.6%
S171T	93.8%
V121W	-1.66%
Q167R	98.4%
V137S	11.9%
L112P	28.2%

Series 4
Target: CCNA1, cyclin fold, Cln2 fusion (human)
Method: yeast growth competition, sequencing
Medium: yeast
Setting: weak parent motif
Relative to: not given
Reading: higher = stronger binding
Starting sequence: SAMHD1 docking peptide (human); ASKSRVQLFKDDP; partner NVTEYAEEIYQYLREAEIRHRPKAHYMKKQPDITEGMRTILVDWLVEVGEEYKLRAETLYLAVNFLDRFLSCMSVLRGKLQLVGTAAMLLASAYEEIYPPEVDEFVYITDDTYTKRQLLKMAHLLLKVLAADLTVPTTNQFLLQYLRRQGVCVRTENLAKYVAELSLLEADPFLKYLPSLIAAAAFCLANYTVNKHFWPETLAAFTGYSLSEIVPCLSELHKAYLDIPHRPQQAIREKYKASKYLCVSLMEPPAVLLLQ
Variant	normalised enrichment score
ASKSEVQLFKDDP [R5E]	-0.0359
ASKSRVQLFKDLP [D12L]	0.278
ASKSRVQLFKDNP [D12N]	0.395
ASKSRVQLFKVDP [D11V]	0.205
ASKYRVQLFKDDP [S4Y]	0.356
ASKSRVQLFKDSP [D12S]	0.0419
ASKSRVQPFKDDP [L8P]	0.25
ASKSRVQLRKDDP [F9R]	0.339
ASTSRVQLFKDDP [K3T]	-0.244
ASKSRVWLFKDDP [Q7W]	-0.0496
ASKSRVLLFKDDP [Q7L]	0.137
ASKSRVQLVKDDP [F9V]	0.46
ASKSRVQLFPDDP [K10P]	0.352
ASKSRVQLFKIDP [D11I]	0.125
ASKSRVQLFKDMP [D12M]	0.344
ASGSRVQLFKDDP [K3G]	0.126
ASKSRVQLFKDCP [D12C]	0.185
ASKSRVQLFKDHP [D12H]	0.374
ASKSWVQLFKDDP [R5W]	-0.0473
ASKSRVQLLKDDP [F9L]	0.646
ASKWRVQLFKDDP [S4W]	0.0291

Series 5
Target: Prothrombin, mature alpha-thrombin (F2, Homo sapiens, UniProt P00734)
Method: aptamer microarray, sandwich
Molecule type: DNA with 2'F-ANA
Medium: in vitro
Tested at: 200 nM
Setting: whole 15-mer aptamer, many near background
Together with: Cy3 exosite-II aptamer, 400 nM
Reading: higher = stronger binding
Sequence: GGTTGGTGTGGTTGG
Modification	mean fluorescence intensity [a.u.]
2'F-ANA at 2 4 11 14	101
2'F-ANA at 1 2 3 4 6 7 9 11 12 13 15	148
2'F-ANA at 2 3 5 11 13 14	60.2
2'F-ANA at 3 6 7 11 12 13 14 15	536
2'F-ANA at 1 2 3 5 9 11 15	55.8
2'F-ANA at 6 8 9 10 12 14 15	101
2'F-ANA at 3 5 10 12 15	85.4
2'F-ANA at 1 3 4 6 8 14 15	70
2'F-ANA at 1 2 3 5 7 13 15	61.9
2'F-ANA at 3 4 5 6 7 9 10 14	51
2'F-ANA at 1 2 4 5 7 11 15	54.6
2'F-ANA at 1 2 3 7 8 10 11 13 14	53.1
2'F-ANA at 1 2 3 4 5 8	134
2'F-ANA at 1 4 7 8 12 13 14	59.9
2'F-ANA at 1 3 4 6 7 11 14	65.1
2'F-ANA at 3 7 8 10 11 15	539
2'F-ANA at 4 5 6 8 9 11 12 15	106
2'F-ANA at 1 2 3 6 9 10 11 13 14	71.1
2'F-ANA at 1 2 4 5 6 8 10 14 15	60
2'F-ANA at 1 2 5 8 13 14	64.3
2'F-ANA at 1 5 7 8 11 13 14 15	44.4
2'F-ANA at 2 3 6 8 9 11 12 14 15	403
2'F-ANA at 1 2 5 6 7 8 10 11 12 13 14	50.6
2'F-ANA at 1 2 3 7 9 10 11 12 14	53.2
2'F-ANA at 2 3 5 6 7 9 10 11 12 15	66

Excerpt of the above (series 3):
Variant	relative binding score
R111I	65.8%
R88M	93.2%
V121W	-1.66%
L94G	24.9%
P36Q	94.7%
